Measured values pooled from the literature.
Compare with care: the assays were run in different laboratories.
Organism: herpes simplex virus 1

For `Cc1ccc(S(=O)(=O)Nn2c3c(cc(-c4nc5ccccc5s4)c2=O)CCCC3)cc1`, “viral titre reduction” read 40% (plaque; Vero; non-toxic concentration, mean of three viral titres).
For `COC(=O)c1cc(O)c(=O)c(O)cc1C`, antiviral activity read “inactive” (viral replication; 1 µM).
For `CCOC(=O)[C@@H](C)NP(=O)(CO[C@H](CF)Cn1cnc(N)nc1=O)N[C@H](C)C(=O)OCC`, the EC50 was > 100 µM (cytopathic effect; HEL, KOS, TK+).
Under “IE gene expression”, `N[C@H]1C[C@@H]1c1ccc(-c2cccc(O)c2)cc1` is recorded as “inhibited” (qRT-PCR, refers to: ICP27 and ICP4 mRNA; HeLa; 50 µM, 5 h pretreatment, infection 2 h).
Under inhibition, `Cc1cc(O)c(O)c(=O)c(O)c1` is recorded as “inhibited” (viral replication; 5 µM).
For `Cc1ccc(O)c(C=NNC(=N)NO)n1`, the plaque reduction was 100% (viral replication; Vero, McKrae; 100 µM).
For `CC(=O)OC[C@H]1O[C@@H](Sc2sc(C(=O)c3ccc(C)cc3)c(N)c2-c2nc3ccccc3s2)[C@H](OC(C)=O)[C@@H](OC(C)=O)[C@H]1OC(C)=O`, the plaque reduction was 80% (nontoxic concentration, mean over three virus titres).
For `CCOC(=O)[C@@H](C)NP(=O)(CO[C@H](CF)CN1CNC(N)=NC1=O)N[C@H](C)C(=O)OCC`, the EC50 was > 100 µM (cytopathic effect; HEL, KOS, TK+).
The selectivity index of `N=C(NO)NN=Cc1ccc2ccccc2n1` is reported as 3.4 (plaque reduction; Vero, McKrae; reference: TC50 over IC50).
`CC(C)OC(=O)[C@H](Cc1ccccc1)NP(=O)(COCCn1cnc2c(=O)[nH]c(=O)[nH]c21)N[C@@H](Cc1ccccc1)C(=O)OC(C)C` has an EC50 of > 100 µM (cytopathic effect; HEL, KOS).

Some of these lines once more:
`CC(C)OC(=O)[C@H](Cc1ccccc1)NP(=O)(COCCn1cnc2c(=O)[nH]c(=O)[nH]c21)N[C@@H](Cc1ccccc1)C(=O)OC(C)C` has an EC50 of > 100 µM (cytopathic effect; HEL, KOS).
